# Measured values pooled from the literature.
# Lines come from different studies, so protocols differ.
Compound,system,conditions,Tmax [h]
O=c1cc(-c2ccccc2)oc2c(Br)c(O)c(O)c(O)c12,"C57BL/6 mouse, plasma","oral, 250 mg/kg, single dose",1.6
CCCCCCCC(=O)NC[C@H](NC(=O)[C@H](CO)NC(=O)CN)C(=O)N[C@@H](Cc1ccccc1)C(=O)N[C@@H](CC(C)C)C(=O)N[C@@H](CO)C(=O)N1CCC[C@H]1C(=O)N[C@@H](CCC(=O)O)C(=O)N[C@@H](Cc1c[nH]cn1)C(=O)N[C@@H](CCC(N)=O)C(=O)N[C@@H](CCCNC(=N)N)C(=O)N[C@H](C(=O)N[C@@H](CCC(N)=O)C(=O)N[C@H](C(=O)N[C@@H](CCCNC(=N)N)C(=O)N1CCC[C@H]1C(=O)N1CCC[C@H]1C(=O)N[C@@H](Cc1c[nH]cn1)C(=O)N[C@@H](CCCCN)C(=O)N[C@@H](C)C(=O)N1CCC[C@H]1C(=O)N[C@@H](Cc1c[nH]cn1)C(=O)N[C@H](C(=O)N[C@H](C(=O)O)C(C)C)C(C)C)C(C)C)C(C)C,"mouse, plasma","subcutaneous, 7.2 mg/kg",0.0833
CC[C@H](C)[C@@H]1NC(=O)[C@H](Cc2ccc(O)cc2)NC(=O)[C@@H](N)CSSC[C@@H](C(=O)NCC(=O)N[C@@H](CCCCNC(=O)COCCOCCNC(=O)COCCOCCNC(=O)CC[C@H](NC(=O)CC[C@H](NC(=O)CCCCCCCCCCCCCCCCC(=O)O)C(=O)O)C(=O)O)C(=O)NCC(N)=O)NC(=O)[C@H](CC(N)=O)NC(=O)[C@H](CCC(N)=O)NC1=O,"C57BL/6 mouse, plasma","intraperitoneal, 1 mg/kg, single dose",1 to 4
CC(C)[C@H]1NC(=O)C[C@H]2/C=C/CCSSC[C@@H](NC1=O)C(=O)N[C@H](Cc1cccc3ccccc13)C(=O)NCC(=O)O2,"nude mouse, blood","oral, 24 mg/kg",0.25
CC1(O)CC23CC(O)C4(O)C(C5OC5C4(C)C)C(C)(O)C2CCC1C3O (stereo not drawn),"mouse, plasma","oral, 0.2 mg/kg",0.083
CCCCCCCCCCCCCCCC(=O)NCCCC[C@H](NC(=O)[C@H](CCCCN)NC(=O)[C@H](CCCCN)NC(=O)[C@@H]1CCCN1C(=O)CNC(=O)[C@H](CC(C)C)NC(=O)[C@H](CC(C)C)NC(=O)[C@H](Cc1ccc(O)cc1)NC(=O)CNC(=O)[C@H](C)NC(=O)[C@H](CO)NC(=O)[C@H](CC(N)=O)NC(=O)[C@H](CC(C)C)NC(=O)[C@@H](NC(=O)[C@H](Cc1c[nH]c2ccccc12)NC(=O)CNC)[C@@H](C)O)C(=O)N[C@@H](CCCCN)C(N)=O,"CF-1 mouse, plasma","intraperitoneal, 2 mg/kg",1
COc1ccc(F)cc1S(=O)(=O)Nc1cnc2c(c1)C(=O)NCCO2,"male C57BL/6 mouse, plasma","oral, 0.3 mg/kg, single dose",1
CCCCCCCC(=O)OC[C@H](NC(=O)[C@H](CO)NC(=O)CN)C(=O)N[C@@H](Cc1ccccc1)C(=O)N[C@@H](CC(C)C)C(=O)N[C@@H](CO)C(=O)N1CCC[C@H]1C(=O)N[C@@H](CCC(=O)O)C(=O)N[C@@H](Cc1cnc[nH]1)C(=O)N[C@@H](CCC(N)=O)C(=O)N[C@@H](CCCNC(=N)N)C(=O)N[C@H](C(=O)N[C@@H](CCC(N)=O)C(=O)N[C@@H](CCC(N)=O)C(=O)N[C@@H](CCCNC(=N)N)C(=O)N[C@@H](CCCCN)C(=O)N[C@@H](CCC(=O)O)C(=O)N[C@@H](CO)C(=O)N[C@@H](CCCCN)C(=O)N[C@@H](CCCCN)C(=O)N1CCC[C@H]1C(=O)N1CCC[C@H]1C(=O)N[C@@H](C)C(=O)N[C@@H](CCCCN)C(=O)N[C@@H](CC(C)C)C(=O)N[C@@H](CCC(N)=O)C(=O)N1CCC[C@H]1C(=O)N[C@@H](CCCNC(=N)N)C(=O)O)C(C)C,"mouse, plasma","intraperitoneal, 1.2 mg/kg",0.0833
NC1CCN(C(=O)OC2CCCC3(C2)OOC2(O3)C3CC4CC(C3)CC2C4)CC1 (stereo not drawn),"mouse, plasma","oral, 50 mg/kg, single dose",2
